Experimental data gathered from unrelated publications.
Each line is one published result; not all experiments were run side by side. “And” joins repeats or separate records; there may be more than shown. ± marks the error that the study gave.
DRD4: D(4) dopamine receptor (DRD4, Homo sapiens, UniProt P21917)
Chain of UniProt P21917 (whole entry, looked up): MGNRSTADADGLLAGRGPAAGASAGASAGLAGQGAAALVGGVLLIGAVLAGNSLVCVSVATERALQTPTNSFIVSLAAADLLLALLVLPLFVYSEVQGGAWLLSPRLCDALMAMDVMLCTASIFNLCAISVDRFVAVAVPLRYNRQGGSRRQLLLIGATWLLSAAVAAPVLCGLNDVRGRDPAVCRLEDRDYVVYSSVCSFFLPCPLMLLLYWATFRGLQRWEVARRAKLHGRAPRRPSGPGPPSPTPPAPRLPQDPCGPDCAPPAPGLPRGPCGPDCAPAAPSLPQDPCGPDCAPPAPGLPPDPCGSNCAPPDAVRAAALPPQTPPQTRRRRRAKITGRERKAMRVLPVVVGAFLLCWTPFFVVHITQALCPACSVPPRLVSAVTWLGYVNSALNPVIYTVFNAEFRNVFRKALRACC
CASP10: Caspase-10 (CASP10, Homo sapiens, UniProt Q92851)
Chain of UniProt Q92851 (whole entry, looked up): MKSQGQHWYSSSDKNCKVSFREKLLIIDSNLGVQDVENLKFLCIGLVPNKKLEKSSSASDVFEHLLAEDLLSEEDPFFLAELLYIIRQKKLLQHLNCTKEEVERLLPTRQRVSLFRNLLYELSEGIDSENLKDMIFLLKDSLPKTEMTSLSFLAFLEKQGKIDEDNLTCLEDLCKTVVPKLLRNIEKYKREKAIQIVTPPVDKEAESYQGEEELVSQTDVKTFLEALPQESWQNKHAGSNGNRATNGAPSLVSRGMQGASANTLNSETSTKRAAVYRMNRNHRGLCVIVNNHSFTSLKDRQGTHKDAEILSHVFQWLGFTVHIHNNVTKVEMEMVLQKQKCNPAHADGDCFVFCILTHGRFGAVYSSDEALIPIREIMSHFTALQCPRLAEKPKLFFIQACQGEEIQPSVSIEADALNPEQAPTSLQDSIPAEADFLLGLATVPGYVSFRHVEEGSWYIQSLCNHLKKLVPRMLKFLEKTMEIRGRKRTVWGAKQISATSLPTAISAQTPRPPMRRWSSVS
Chain of UniProt P17706 (whole entry, unmodified, looked up): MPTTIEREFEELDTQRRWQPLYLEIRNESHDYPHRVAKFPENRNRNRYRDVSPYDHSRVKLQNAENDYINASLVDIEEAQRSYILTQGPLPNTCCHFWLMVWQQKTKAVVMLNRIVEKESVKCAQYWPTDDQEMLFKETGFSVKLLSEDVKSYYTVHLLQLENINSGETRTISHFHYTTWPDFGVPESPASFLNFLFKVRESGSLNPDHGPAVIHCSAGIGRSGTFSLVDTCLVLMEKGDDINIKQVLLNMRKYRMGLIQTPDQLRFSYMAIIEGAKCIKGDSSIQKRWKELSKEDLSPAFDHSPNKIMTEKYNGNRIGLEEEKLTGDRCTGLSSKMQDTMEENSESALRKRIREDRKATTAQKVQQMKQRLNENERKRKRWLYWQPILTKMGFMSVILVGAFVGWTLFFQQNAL

Compound	tested on	test	system	setting	scale	quantity	value
CCOC(=O)C1CCN(CCC(=O)Nc2ccccc2F)CC1			zebrafish larvae, 7 dpf	10 µM, minute 6		larval motion	0.5 ± 0.4 pixels/frame
c1ccc(-c2n[nH]cc2-c2ccnc3ccccc23)nc1	CMK2 (Candida albicans)	kinase binding, MIB/MS competition	Candida albicans lysate	10 µM	relative to: DMSO	log2 fold change	-0.11
CC1=C(Cn2cc(CN3CCC(=O)CC3)nn2)C(=O)c2ccccc2C1=O	Schistosoma mansoni		adult worms	10 µM, 24 h		killing	35.1%
C=CC(=O)N1[C@@H](c2ccc3c(c2)OCO3)c2[nH]c3ccccc3c2C[C@H]1C(=O)N1CCN(C)CC1	human cyclin E1 N112C-3xFLAG:CDK2	co-IP with TMT proteomics, item: CDKN1A		concentration not given, P38936	relative to: wild type DMSO	relative co-enrichment	144%
CNS(=O)(=O)Nc1nccc(Cc2c(C)c3ccc(Oc4ncccc4F)cc3oc2=O)c1F	J82	cell viability		7 days		IC50	> 1000 nM
O=C(CCN1CCN(C/C=C/c2ccccc2)CC1)Nc1ccccc1F			zebrafish larvae, 7 dpf	10 µM, minute 4		larval motion	7.2 ± 1.9 pixels/frame
CC(C)C[C@H](NC(=O)[C@@H](CCCCNC(=O)[C@@H](Cc1ccccc1)NC(=O)CCCCCNC(=O)CN1CCN(CC(=O)O)CCN(CC(=O)O)CCN(CC(=O)O)CC1)NC(=O)[C@H](Cc1ccc(O)cc1)NC(=O)[C@H](CO)NC(=O)[C@H](Cc1c[nH]c2ccccc12)NC(=O)[C@H](Cc1c[nH]cn1)NC(=O)[C@@H]1CCC(=O)N1)C(=O)N[C@@H](CCCNC(=N)N)C(=O)N1CCC[C@H]1C(=O)NCC(N)=O [indium-111 labelled]			female athymic nude mice, muscle	intravenous, 0.037 MBq, 2 h		tissue uptake	0.04 ± 0.01 %ID/g
COc1ccccc1C1CCN(CCC(=O)Nc2ccc(C)c(C)c2)CC1			zebrafish larvae, 7 dpf	10 µM, minute 6		larval motion	1.5 ± 0.9 pixels/frame
C=C(NC(=O)c1csc(-c2nc3c(cc2O)-c2nc(cs2)C(=O)NC(C(C)O)C(=O)NC(=C(C)OC)c2nc(cs2)C(=O)NC2c4nc(cs4)C(=O)NC(COC(=O)c4c5c6c(cccc6n4O)COC(=O)C(OC4CC(C)(O)C(N(C)C)C(C)O4)C2OC5)c2nc-3cs2)n1)C(N)=O (stereo not drawn)	Streptococcus pneumoniae		-4, immunocompromised mice, lung	2 mg/kg/day thrice daily, 24 h post-dose		lung bacterial load	6.52 log10 CFU/lung
COc1ccc(CN2CCC(F)(F)C(COc3ccc(F)c(F)c3)C2)cc1F (stereo not drawn)	DRD4	ligand displacement, radioligand		cell membranes		Ki	5.5 nM
CN1CCCNC(=O)c2cccc(c2)C(=O)NCCCN(C)CCCNc2cccc3c2C(=O)c2cccc(c2C3=O)NCCC1	SAS	RNA-seq, item: PVT1 mRNA		1 µM, 6 h	relative to: untreated cells	log2 fold change	0.732
Nc1ncc(-c2cc(-c3cnn(CC(F)(F)F)c3)ncc2F)nc1C(=O)NC1CNCC(F)C1 (stereo not drawn)	CAMK1	KINOMEscan		1 µM	relative to: DMSO control	remaining binding	81%
Cc1cc(OCCOCCN(C)C)cc(C(C)C)c1			zebrafish larvae, 7 dpf	10 µM, minute 2		larval motion	16.2 ± 1.3 pixels/frame
Cn1ncc2cc(-c3cncc(Cl)c3N3CCC4(CCNC4=O)CC3)ccc21	LS174T	gene expression, microarray, item: PCK1 mRNA		concentration not given, 24 h	relative to: untreated cells	log2 fold change	8.08
CC(=O)N1C[C@H](O)C[C@H]1C(=O)N[C@H](C(=O)N[C@@H](CO)C(=O)N[C@@H](CC(=O)O)C(=O)COC(=O)c1c(C)cccc1C)C(C)(C)C	CASP10	enzyme activity, inhibitor				kinact/KI	260000 M⁻¹ s⁻¹
Cc1ncsc1-c1ccc(C(C)NC(=O)C2CC(O)CN2C(=O)C(NC(=O)CCCCCCCCCCN2CCCC(Nc3ncc(Cl)c(Nc4ccccc4S(=O)(=O)C(C)C)n3)C2)C(C)(C)C)cc1 (stereo not drawn)	22Rv1	RNA-seq, item: ZNF747 mRNA		concentration not given	relative to: DMSO	log2 fold change	-2.46
C=CC(=O)Nc1cccc(Cn2ncc3cnc(Nc4cnn(CCOC)c4)nc32)c1	HIPK4 human	binding, KINOMEscan		100 nM	lower = stronger binding	percent of control	95%
COC1CN([C@H]2CC[C@H]([C@@]3(C)Oc4c(Cl)cc(C(=O)NCc5c(SC)cc(C)[nH]c5=O)c(C)c4O3)CC2)C1		RNA-seq, item: PLS1 mouse homolog	mouse, HT-1376 xenograft, whole blood	dose not given	relative to: vehicle	log2 fold change	0.596
O=C1NC2(CC2)COc2ncc(F)cc2[C@H]2COCCN2c2ccn3ncc1c3n2	CHL cells	chromosomal aberration test		5 µg/mL, 24 h, without S9 mix		cells with chromosome gaps	0%
CC(=O)N[C@@H](CC(=O)O)C(=O)N[C@@H](CCC(=O)O)C(=O)N[C@H](C(=O)N[C@@H](CC(=O)O)C(=O)COC(=O)c1c(C)cccc1C)[C@@H](C)OCc1ccccc1	CASP10	enzyme activity, inhibitor				kinact/KI	167000 M⁻¹ s⁻¹
C[C@@H](O)[C@@H]1NC(=O)[C@H](CCCCN)NC(=O)[C@@H](Cc2c[nH]c3ccccc23)NC(=O)[C@H](Cc2ccc(O)cc2)NC(=O)[C@@H](NC(=O)[C@@H](Cc2ccccc2)NC(=O)CN2CCN(CC(=O)O)CCN(CC(=O)O)CCN(CC(=O)O)CC2)CSSC[C@@H](C(=O)N[C@H](CO)[C@@H](C)O)NC1=O [gallium-67 labelled]		gamma counting	ICR mice, male, spleen	iv, 11 kBq/mouse, 1 h		tissue uptake	1.93 ± 0.54 %ID/g
CCN(C(=O)c1cc(F)ccc1Oc1nncnc1N1CCC2(C1)CN([C@H](CCCN(C)CCOC)C(C)C)C2)C(C)C	RD-ES	cell growth or viability		7 days		GI50	> 10000 nM
CN(C)C(=O)c1ccnc(N2Cc3cn(Cc4ccc(F)cc4F)nc3C2)n1			mouse, hippocampal slice, Schaffer collaterals	dose not given, interstimulus interval 100	relative to: second over first response	paired-pulse ratio	2.28 and 1.51 and 1.36 and 1.55 and 1.46 and 1.63 and 1.75 and 1.57
CCN(CC)CC(=O)Nc1cccc(-n2cc(-c3ccc4ccc(-c5cn(-c6cccc(NC(=O)CN(CC)CC)c6)nn5)cc4c3)nn2)c1	RCC4	PCR angiogenesis array, item: PLG		5 x IC50, 6 h, normoxia	relative to: untreated	fold regulation	-1.39
Cn1cnc2cc(CN3CCC(F)(F)C(COc4ccc(C#N)c(F)c4)C3)ccc21 (stereo not drawn)	DRD4	ligand displacement, radioligand		cell membranes		Ki	40.4 nM
CC(C)c1ccc(N(C)c2ccc3c(c2)OCC[C@H]3CNc2cnccc2C(=O)O)cc1	NCI-H2087	cell growth or viability, ATP luminescence		7 days		IC50	3.56 nM
CC1(C)C[C@@H](Nc2cccc(-c3sc(C(=O)O)c(OCC(=O)O)c3Cl)c2)CCN1S(=O)(=O)Cc1cccc(NC(=O)CN2CCC(c3ccc4c(c3)oc(=O)n4C3CCC(=O)NC3=O)CC2)c1 (stereo partly drawn)	PTPN2 (Homo sapiens, UniProt P17706, H30A/P33A/R35A)	degrader, bio-layer interferometry		125 nM	higher = more binding	BLI binding response	0.473 a.u.

Excerpt of the above:
Compound	tested on	test	system	setting	scale	quantity	value
CCOC(=O)C1CCN(CCC(=O)Nc2ccccc2F)CC1			zebrafish larvae, 7 dpf	10 µM, minute 6		larval motion	0.5 ± 0.4 pixels/frame
c1ccc(-c2n[nH]cc2-c2ccnc3ccccc23)nc1	CMK2 (Candida albicans)	kinase binding, MIB/MS competition	Candida albicans lysate	10 µM	relative to: DMSO	log2 fold change	-0.11
